Measured values pooled from the literature.
Each line is one published result; not all experiments were run side by side. ± marks the error that the study gave.
EIF4E2: EIF4E2 (Homo sapiens, UniProt O60573)
Sequence of UniProt O60573 (whole entry, looked up): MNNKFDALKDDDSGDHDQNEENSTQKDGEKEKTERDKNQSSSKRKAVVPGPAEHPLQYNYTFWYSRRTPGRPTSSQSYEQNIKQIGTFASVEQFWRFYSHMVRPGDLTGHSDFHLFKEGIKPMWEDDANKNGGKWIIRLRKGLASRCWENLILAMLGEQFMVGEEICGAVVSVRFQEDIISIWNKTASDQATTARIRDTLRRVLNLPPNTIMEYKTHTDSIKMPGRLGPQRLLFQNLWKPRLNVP
CXCR2: C-X-C chemokine receptor type 2 (CXCR2, Homo sapiens, UniProt P25025)
Sequence of UniProt P25025 (whole entry, looked up): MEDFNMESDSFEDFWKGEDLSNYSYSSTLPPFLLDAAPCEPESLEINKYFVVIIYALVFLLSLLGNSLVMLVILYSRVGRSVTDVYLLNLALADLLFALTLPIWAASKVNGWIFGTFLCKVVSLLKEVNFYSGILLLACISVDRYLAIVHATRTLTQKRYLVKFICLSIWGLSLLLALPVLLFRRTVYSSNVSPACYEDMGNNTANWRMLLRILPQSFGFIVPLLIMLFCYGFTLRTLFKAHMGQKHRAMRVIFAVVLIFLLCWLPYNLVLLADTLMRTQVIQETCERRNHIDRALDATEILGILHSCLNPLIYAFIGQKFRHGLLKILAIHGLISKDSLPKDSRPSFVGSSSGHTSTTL
Sequence of UniProt P84090 (whole entry, unmodified, looked up): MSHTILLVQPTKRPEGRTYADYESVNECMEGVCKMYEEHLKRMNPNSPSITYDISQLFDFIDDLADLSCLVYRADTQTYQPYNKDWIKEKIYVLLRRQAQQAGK
Sequence of UniProt Q16620 (whole entry, looked up): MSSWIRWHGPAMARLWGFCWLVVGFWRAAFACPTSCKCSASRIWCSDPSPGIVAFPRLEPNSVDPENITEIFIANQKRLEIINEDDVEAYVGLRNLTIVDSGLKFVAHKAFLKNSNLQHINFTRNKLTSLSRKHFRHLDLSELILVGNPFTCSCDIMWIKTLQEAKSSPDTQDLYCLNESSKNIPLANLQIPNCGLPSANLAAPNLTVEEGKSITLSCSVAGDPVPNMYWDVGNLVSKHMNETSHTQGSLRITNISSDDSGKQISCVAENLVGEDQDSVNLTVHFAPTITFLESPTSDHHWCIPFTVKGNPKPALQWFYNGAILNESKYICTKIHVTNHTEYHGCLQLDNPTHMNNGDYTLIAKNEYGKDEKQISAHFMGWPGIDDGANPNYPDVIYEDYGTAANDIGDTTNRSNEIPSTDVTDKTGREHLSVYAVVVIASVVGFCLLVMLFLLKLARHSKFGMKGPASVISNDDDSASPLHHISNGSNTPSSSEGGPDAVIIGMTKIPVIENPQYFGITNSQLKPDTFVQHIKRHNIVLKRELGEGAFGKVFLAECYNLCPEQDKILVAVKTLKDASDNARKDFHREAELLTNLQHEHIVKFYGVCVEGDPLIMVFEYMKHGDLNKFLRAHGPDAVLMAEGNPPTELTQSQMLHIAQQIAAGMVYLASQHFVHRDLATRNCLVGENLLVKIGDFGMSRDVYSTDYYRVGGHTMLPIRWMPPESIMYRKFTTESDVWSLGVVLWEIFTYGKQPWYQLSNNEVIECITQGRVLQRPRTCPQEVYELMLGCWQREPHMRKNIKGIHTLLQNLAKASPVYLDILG
Sequence of UniProt Q9QUK6 (whole entry, looked up): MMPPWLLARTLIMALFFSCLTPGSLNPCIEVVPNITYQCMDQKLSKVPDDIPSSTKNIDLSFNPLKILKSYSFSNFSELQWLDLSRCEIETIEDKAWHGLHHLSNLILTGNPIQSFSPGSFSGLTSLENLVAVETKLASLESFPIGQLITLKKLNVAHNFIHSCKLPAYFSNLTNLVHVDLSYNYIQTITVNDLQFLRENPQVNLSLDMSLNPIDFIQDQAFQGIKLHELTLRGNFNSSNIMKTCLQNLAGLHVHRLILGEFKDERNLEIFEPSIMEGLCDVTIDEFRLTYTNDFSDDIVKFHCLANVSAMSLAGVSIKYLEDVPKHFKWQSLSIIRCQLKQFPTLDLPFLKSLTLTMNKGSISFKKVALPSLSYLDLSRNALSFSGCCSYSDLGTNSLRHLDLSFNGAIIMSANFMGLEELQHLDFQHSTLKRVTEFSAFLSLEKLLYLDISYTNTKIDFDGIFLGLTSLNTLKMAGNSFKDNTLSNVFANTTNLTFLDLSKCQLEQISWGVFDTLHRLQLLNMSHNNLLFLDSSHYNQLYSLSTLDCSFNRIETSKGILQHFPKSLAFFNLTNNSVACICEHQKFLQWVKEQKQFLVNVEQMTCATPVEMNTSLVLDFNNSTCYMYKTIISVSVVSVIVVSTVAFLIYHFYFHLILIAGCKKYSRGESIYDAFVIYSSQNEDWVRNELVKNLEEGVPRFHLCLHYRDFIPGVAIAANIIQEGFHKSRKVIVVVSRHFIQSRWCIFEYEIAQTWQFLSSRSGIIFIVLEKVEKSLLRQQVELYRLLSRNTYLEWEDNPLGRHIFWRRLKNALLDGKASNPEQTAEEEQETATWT
Sequence of UniProt P20029 (whole entry, looked up): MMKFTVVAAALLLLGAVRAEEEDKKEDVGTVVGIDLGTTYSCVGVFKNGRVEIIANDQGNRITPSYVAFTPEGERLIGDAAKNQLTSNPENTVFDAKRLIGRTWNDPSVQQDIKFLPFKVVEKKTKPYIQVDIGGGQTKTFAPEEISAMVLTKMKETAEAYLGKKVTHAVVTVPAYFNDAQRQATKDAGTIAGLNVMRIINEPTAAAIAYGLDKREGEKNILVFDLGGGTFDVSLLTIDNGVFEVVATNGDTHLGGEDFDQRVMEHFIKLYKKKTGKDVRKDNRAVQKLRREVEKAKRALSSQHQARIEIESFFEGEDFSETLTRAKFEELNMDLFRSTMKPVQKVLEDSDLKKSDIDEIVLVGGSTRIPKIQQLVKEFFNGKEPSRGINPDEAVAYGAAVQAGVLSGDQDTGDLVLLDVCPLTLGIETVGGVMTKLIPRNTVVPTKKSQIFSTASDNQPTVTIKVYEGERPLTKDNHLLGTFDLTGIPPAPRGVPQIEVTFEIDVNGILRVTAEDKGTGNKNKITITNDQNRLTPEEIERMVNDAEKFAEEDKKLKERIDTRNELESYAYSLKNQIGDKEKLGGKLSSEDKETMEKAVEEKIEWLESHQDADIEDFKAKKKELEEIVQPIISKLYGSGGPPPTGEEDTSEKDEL

Substance	target or system	test	test system	conditions	endpoint	value
KYKLADYRYGREEMLALFLK (GIGYF2(35-54) peptide; sequence looked up)	EIF4E2	ITC	peptide	pH 7.0, 20 °C, GB1-stabilized peptide titration	ΔG	-8.8 kcal/mol
pro-IGF-2	Endoplasmic reticulum chaperone BiP (Hspa5, Mus musculus, UniProt P20029)	FRET	–	pH 6.0, 37 °C, oligomer proximity, together with: ADP	client concentration at maximal FRET	0.3 µM
hepatocyte growth factor	Hepatocyte growth factor receptor (MET, Homo sapiens, UniProt P08581)	receptor phosphorylation, immunoblotting	Flp-In-293 expressing MET	10 min	lowest maximal concentration	12 nM
FGA (Homo sapiens, UniProt P02671)	DNAJA1 (Homo sapiens, UniProt P31689)	cross-linking MS	–	together with: DSSO	cross-linked residues	K437 to K205
HMGB1	Toll-like receptor 4 (Mus musculus, UniProt Q9QUK6)	fluorescence titration	–	pH 7.4, 25 °C, together with: BODIPY FL-labelled alarmin	Kd	0.186 µM
IL-8	CXCR2	binding, agonist radioligand displacement	–	–	IC50	0.32 nM
11-deoxycorticosterone	CYP11B2 (human)	substrate binding, stopped-flow global kinetic fitting	purified enzyme	model, 4-state CS, linear, together with: equimolar adrenodoxin	Kd	4.03 µM
colistin	Pseudomonas aeruginosa	–	clinical isolate RKI 21/11	–	MIC	≤ 1 mg/L
ALB (Homo sapiens, UniProt P02768)	SLC27A1 (Homo sapiens, UniProt Q6PCB7)	cross-linking MS	–	together with: DSSO	cross-linked residues	K161 to K49
human CCL3	C-C chemokine receptor type 5 (CCR5, Homo sapiens, UniProt P51681)	β-arrestin recruitment, agonist, Tango	U2OS	–	EC80	14 nM
BDNF	BDNF/NT-3 growth factors receptor (NTRK2, Homo sapiens, UniProt Q16620)	receptor phosphorylation, immunoblotting	Flp-In-293 expressing NTRK2	10 min	lowest maximal concentration	4 nM
Neuropeptide Y	–	RP-HPLC	HALO C18 column	25 µM, acetic acid/acetonitrile, 25 min gradient	retention time	9.62 min
PRTARHAPAVRKASPDLKLLKDVKISVSFTE (DGCR8 peptide F108A)	Enhancer of rudimentary homolog (Homo sapiens, UniProt P84090)	DGCR8 peptide binding, ITC	peptide	293 K	ΔH	-22 ± 3.59 kJ/mol
KYKLADYRYGREEMLALYVK (GIGYF1(33-52) peptide; sequence looked up)	EIF4E2	ITC	peptide	pH 7.0, 20 °C, GB1-stabilized peptide titration	-TΔS	14.6 kcal/mol
interleukin-8	CXCR2	radioligand binding, agonist	–	reference compound	Hill coefficient	1.3
PRTARHAPAVRKFSPDLKLLKDVKISVSFTE (DGCR8(96-126), SUMO-tagged)	Enhancer of rudimentary homolog (Homo sapiens, UniProt P84090, T18A)	binding, isothermal titration calorimetry	peptide	293 K, together with: DGCR8 peptide, SUMO-tagged	Kd	22.4 ± 9.98 µM
